Published values collected from several papers.
Each line is one published result; not all experiments were run side by side. Numbers after ± are the reported error.
Matrix: plasma

CC(C)(Sc1cc[n+]([O-])cc1-c1ccc(C#N)c2ccccc12)C(=O)OC1OC(C(=O)O)C(O)C(O)C1O (stereo not drawn)  Tmax (oral, 15 mg, moderate renal impairment, fasted): 3 h
NC[C@@H](C(=O)Nc1ccc(-c2cn[nH]c2)cc1)c1ccccc1  Tmax (rabbit New Zealand White; topical ocular, one drop 0.1%): 2 h
CC(=O)N[C@H](CC(=O)O)C(=O)N[C@H](Cc1c[nH]c2ccccc12)C(=O)N[C@H](Cc1ccccc1)C(=O)N[C@H](CCCCN)C(=O)N[C@H](C)C(=O)N[C@H](Cc1ccccc1)C(=O)N[C@H](Cc1ccc(O)cc1)C(=O)N[C@H](CC(=O)O)C(=O)N[C@H](CCCCN)C(=O)N[C@@H](C(=O)N[C@H](C)C(=O)N[C@H](CCC(=O)O)C(=O)N[C@H](CCCCN)C(=O)N[C@H](Cc1ccccc1)C(=O)N[C@H](CCCCN)C(=O)N[C@H](CCC(=O)O)C(=O)N[C@H](C)C(=O)N[C@H](Cc1ccccc1)C(N)=O)C(C)C  Tmax (statin-treated high-risk CHD patients; oral, 300 mg daily, day 13, median, detected subjects): 2 h
CN1CCN(c2cc(-c3ccccc3CO)c(N(C)C(=O)C(C)(C)c3cc(C(F)(F)F)cc(C(F)(F)F)c3)cn2)CC1  Tmax (healthy volunteers; oral, dose not given, netupitant-palonosetron fixed-dose combination): 11 h
CCCC[C@H](NC(=O)[C@H](CC(C)C)N(C)C(=O)CNC(=O)[C@@H](NC(=O)[C@H](Cc1ccccc1)NC(=O)[C@H](CCCCN)NC(=O)[C@@H](N)CC(=O)O)C(C)C)C(N)=O  Tmax (Göttingen minipig; subcutaneous, 100 µg/kg): 0.167 h
Cc1ccccc1-c1cc(N2CCNCC2)ncc1N(C)C(=O)C(C)(C)c1cc(C(F)(F)F)cc(C(F)(F)F)c1  Tmax (cancer patients; oral, dose not given, netupitant-palonosetron single dose, range of means): 12 to 16.9 h
COc1cc(C)c(Cc2ccc(O)cc2)cc1[C@@H]1S[C@H](CO)[C@@H](O)[C@H](O)[C@H]1O  Tmax (Japanese T2DM patients; 2.5 mg luseogliflozin, day 7, once daily): 2.75 ± 1.13 h
Cc1ccccc1-c1cc(N2CC[N+](C)([O-])CC2)ncc1N(C)C(=O)C(C)(C)c1cc(C(F)(F)F)cc(C(F)(F)F)c1  Tmax (healthy volunteers; oral, dose not given, netupitant-palonosetron fixed-dose combination): 4.67 h
CC(C)(Sc1ccncc1-c1ccc(C#N)c2ccccc12)C(=O)OC1OC(C(=O)O)C(O)C(O)C1O (stereo not drawn)  Tmax (oral, 15 mg, moderate renal impairment, fasted): 2 h
